Assay results collected from several papers.
Parts stem from different laboratories: compare values within a part only.

Block 1
Target: RING finger protein unkempt homolog, zinc fingers 1-6, GST-SBP tag (UNK, Homo sapiens, UniProt Q9C0B0, residues 30-357)
Method: RNA Bind-n-Seq
Molecule type: RNA
Medium: in vitro
Concentration: not given
Notes: RNA with constant flanks, human-mouse chimeric sites, ends assumed
Reference: input RNA pool
Reading: higher = stronger binding
Constant ends, left off below: GGGAGUUCUACAGUCCGACGAUC … CAACAGAGGAUUGAGCAUCA
Residues (chain): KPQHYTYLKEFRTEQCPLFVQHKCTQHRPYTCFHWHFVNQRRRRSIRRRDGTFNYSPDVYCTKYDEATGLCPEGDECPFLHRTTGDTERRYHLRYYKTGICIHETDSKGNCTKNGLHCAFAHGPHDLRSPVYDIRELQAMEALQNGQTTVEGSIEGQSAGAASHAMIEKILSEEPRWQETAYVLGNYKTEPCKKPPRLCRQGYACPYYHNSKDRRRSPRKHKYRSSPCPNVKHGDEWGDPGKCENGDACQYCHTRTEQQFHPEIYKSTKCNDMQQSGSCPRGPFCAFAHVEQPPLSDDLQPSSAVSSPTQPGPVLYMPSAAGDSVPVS
Sequence	bound/input enrichment [ratio]
AUGGAACAUUUCGAUGCGUCACUCAGUACCUAUUUCAAGGCCUUCCUGGGCCCCCGAGAUACAAGAGUAAAAGGAUGGUUCCUCCUGGACAAUUACAUCCCUACGUUUAUCUGCUCUGUU	0.068
UGUGAACUGUCUCUUGAUUGGGGUCUACAAGAUGACUUUUCCUGGCACAUAUUCCAAAGCAUAGACUUUGUUGCCUGCUGCUUAUUGUCUAAUUUACAGGGAUAUUUAAUUUUGUCAGGU	0.387
AAAGUGGACUAUGGCGAGUACAUGGAUAAAAACAAUGUGAGGCGACAAGCAACAACAAUCAUAGCUGAUAACAUUAUAUUUCUGAGUGACCAGACAAAAGAAAAGGCGUAGAAAGGAUGA	1.88
ACCUCCCCCUCCCGCCUCACCCCACCCCCGCUUUUUGGAAAGUUUUUGGCUUUUUUUUUCCUUCCCCAUACAAAGUGAUUACAGUUUCCCCCGCAAGGGUCUAUCGAAGGGCUUGACGGA	1.32
GUACUGCAGCAGCAGGGAAAACUGCAGGAAGCUCUGAUGCAUUAUAAAGAAGCCAUACGAAUCAGUCCUACCUUUGCUGAUGCCUACUCUAAUAUGGGAAACACUCUAAAGGAGAUGCAG	0.25
UUUCUACUGCAGCAAACGAUGCUAAGAGUGAAGGAUCCUAAGAAGUCACUGGAUUUUUAUACGAGGGUUCUUGGACUGACCCUCCUGCAGAAGCUUGACUUCCCUGCUAUGAAGUUCUCG	0.121
GUGUCCUGCUUUCAACUUAAAUCACUGAGGCAUCUCUACUGUUCUGUUAAAAUCAGGACUGUAGCGCUGUGUCACCACAUGAGAGUUGUUAAGCAGCCUUUCUGUGGAGGGUGGGAAUGA	0.114
AACAGAUUGUCUUUAAGCAUUCCAAGCGAGAAUGCUGGGGUGAUCAUAAUUACCCACGUGCCUUCUGACUGAGCUUUAAUGCUGUUCCAUGUUACAUCUUUCCUUCAUUGCAUAUUUGUU	0.115
CACACACUCUUCUGCGGGACCCUCAUCUUGCAGGCCCGGGCCUAUGUGGGACCGCACGUCCUGGCAGUGGUGACUCGCACAGGGUUCUGCACAGCCAAAGGGGGCCUGGUGAGCUCCAUC	0.0948
ACAGUUAUAUUGUUGAGUUUCAUUUUCAUAUAUUCUUGUAGUGUCUGCUUGCCUGUGACUUCUGGUAAAAUAAAAUAUUAAAAUUACAAUAUUUUAGCAUGGUAUUUUUCUAAAAAUAAA	0.868
CUGGCACUCUAUCAGAUAUAUUAAUUUUUUAAUGUAGAUAAAAUUUCAAAAAUGAAUGGCUACUUUACACGUUUAACUAGGGUUUUACUAUAUAUGUGUACAUAUGUAUAUGUAUUUAUA	15.3

Block 2
Target: Histone acetyltransferase KAT6A, winged helix 2, GST fusion (KAT6A, Homo sapiens, UniProt Q92794, residues 85-181)
Method: protein binding microarray
Molecule type: double-stranded DNA, one strand shown
Medium: in vitro
Concentration: not given
Notes: 8-mer, flanks averaged, mean of 2 arrays, mostly near background
Reference: not given
Reading: higher = stronger binding
Target sequence (chain): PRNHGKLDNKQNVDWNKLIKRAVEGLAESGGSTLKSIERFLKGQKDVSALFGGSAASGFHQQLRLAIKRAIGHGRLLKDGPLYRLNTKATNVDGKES
Sequence	E-score
ATGGTAAA	-0.0979
GTACAGTA	-0.183
AGCACGAC	-0.0309
AAATTTAA	0.131
CCGAGACA	-0.0472
GCCTTAAC	-0.127
AACGCAGT	-0.0535
CTCCGAAA	0.0452
GACATGCA	-0.119
GTGACATA	0.0418
CCATTTAA	0.00777
AATAGAGT	-0.247
CCTCTTTA	-0.0106
AGTGTCAA	-0.00626
ATTAATAG	0.111
ACGCGGTG	-0.0403
GATAACCC	-0.135
CAAAGTCG	0.0685
AAACTGAG	-0.036
CGATCCCG	0.0158

Block 3
Target: Interferon regulatory factor 5, full length, phosphomimetic (IRF5, Homo sapiens, UniProt Q13568-2, residues 1-514, S451D/S453D/S456D/S462D)
Method: protein-binding microarray
Molecule type: double-stranded DNA, one strand shown
Medium: in vitro
Concentration: 940 nM top
Notes: 60-bp whole probe
With: salmon DNA 0.4 mg/ml
Reference: random background probes
Reading: higher = stronger binding
Constant ends, left off below: GCCTAGCAC … GTCTTGATTCGCTTGACGCTGCTG
Sequence	fitted relative affinity [z-score]
CCAGTTGAGCACAGGAAAGTGTGCTAG	-0.462
GACGATTTCGGATTTCGAGACGTGCTA	0.794
TTCGATCTCAGACTGGATTAGTGCTAG	-0.299
TTAGGTCTCGACTATCGGTTAGTGCTA	2.17
TTAGGTTTCGGTAACGGTTAGTGCTAG	12.7
GACGAGTTCAGTCTCGAGACGTGCTAG	1.29
TTAGGTATCCTACTTCTTTAGTGCTAG	0.396
TCTCTTTTGGCTTTCCTTTAGTGCTAG	3.57
GAAGGTTTCGGACTGGGGACGTGCTAG	5.12
AACCGCCTCTCCCTTAGACGGTGCTAG	0.5
GACGGTCTCCTGATCCTGACGTGCTAG	-0.206
TTTGATCTCAGACTGGATTAGTGCTAG	0.056
GACGGTATCGGGGTTCGGGACGTGCTA	3.15
TTAGATTTCGGGTTTCGACTAGTGCTA	3.56
TTAGGACTGGACTACCGGTTAGTGCTA	-0.558
GACGATTTCGGGACTGGAAACGTGCTA	-0.00675
TCAGTTTTCAGTCCTGGACTGTGCTAG	1.16
TTAGGACCGGACACTGGGTTAGTGCTA	-0.206
GTAGGTTTCGACTATCGGTTAGTGCTA	8.22
GACGGTCTCGTTATCCTGACGTGCTAG	2.22
AACGGTATCGGTTTCGGGACGTGCTAG	9.35

Block 4
Target: Sal-like protein 4, full length isoform B (SALL4, Homo sapiens, UniProt Q9UJQ4-2, residues 1-616)
Method: universal PBM
Molecule type: double-stranded DNA, one strand shown
Medium: in vitro
Concentration: not given
Notes: 8-mer, flanks averaged, mean of replicates
Reading: higher = stronger binding
Sequence	E-score
ACAATATC	0.345
GCATGAAC	-0.0163
AAAATCCG	-0.0362
ACCCGAGC	-0.115
GTATTTTA	0.317
TAGGGGAA	0.00463
GGCAATTA	0.192
AGTCTAAT	0.141
ATTACCGA	0.0895
CATGTTAG	0.117
TGGACACA	-0.0121
AGGCCCGG	-0.353
CGATCGAG	-0.221
CCAGTCGC	-0.263
ATGACGTC	-0.00693
CGCATGAC	-0.197
CCTGCTGC	-0.179
GTCTTGGA	-0.14
TACAGGGA	-0.0682
AGAAAGGC	-0.0116
GTTAAAAC	0.113
CCCTTCAG	-0.146
CACCTTCA	-0.0473
CCGCCAGA	-0.126
AAAATCTA	0.303

Block 5
Target: Ras GTPase-activating protein-binding protein 1, full length (G3BP1, Homo sapiens, UniProt Q13283)
Sequence of UniProt Q13283 (whole entry, looked up): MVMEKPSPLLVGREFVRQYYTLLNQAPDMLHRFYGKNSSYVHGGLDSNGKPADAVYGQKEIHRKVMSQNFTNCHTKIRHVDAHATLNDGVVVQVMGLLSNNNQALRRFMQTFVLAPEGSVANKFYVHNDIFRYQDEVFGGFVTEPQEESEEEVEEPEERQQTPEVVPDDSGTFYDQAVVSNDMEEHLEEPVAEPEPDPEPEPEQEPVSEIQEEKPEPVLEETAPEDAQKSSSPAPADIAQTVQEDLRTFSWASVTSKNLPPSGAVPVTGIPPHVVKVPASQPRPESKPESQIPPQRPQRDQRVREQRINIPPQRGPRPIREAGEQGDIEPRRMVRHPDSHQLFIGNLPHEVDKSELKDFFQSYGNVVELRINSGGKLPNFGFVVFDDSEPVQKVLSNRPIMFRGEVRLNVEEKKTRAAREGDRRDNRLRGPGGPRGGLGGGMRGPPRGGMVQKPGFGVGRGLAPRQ
Method: RNA Bind-n-Seq
Molecule type: RNA
Medium: in vitro
Concentration: 200 nM
Notes: whole 134-nt RNA, ends assumed
With: 150 mM KCl
Reference: input library
Reading: higher = stronger binding
Constant ends, left off below: GGGAGUUCUACAGUCCGACGAUC … UGGAAUUCUCGGGUGUCAAGG
Sequence	log2 enrichment
AAGUCCUGUGCUACACAUCGUAUGUACCGAAUCGGGGUUUGGGGUGGGGAAAGGGGAAAGUAUUAUGUUACGCCGUUCGGAUCUGCACUU	0.775
UCCUCAAGUCCUGUGCUACACAUCGUAUGUACCGAAUCGGUGGAAAGGUGGAAAGUAUUAUGUUACGCCGUUCGGAUCUGCACUUCCAGC	-0.588
UAACUUUAGAGGAGGAUCUGAUGGAUAUGGCAGUGGAGGUGGAUUUGGGGAUGGCUAUAAUGGGUAUGGAGGAGGACCUGGAGGUGGCAA	0.318
UGGCCCUGGUGGCAUGCGGGGAGGAAGAGGUGGCCUCAUGGAUCGUGGUGGUCCCGGUGGAAUGUUCAGAGGUGGCCGUUGUGGAGACAG	0.0699
ACCAUGCAGGUGGGCAUCUUUGGGAAGUGGGGCAAGGGGGGGAUAGGGAGGGGGGUAACACUUUGGGAACAGGUGGUCCCAGGCCGUUUC	1.31
CUGUGCUACACAUCGUAUGUACCGAAUCGGGGUUUUUUUGGGGUUUGGGGAAAAAAAGGGGAAAGUAUUAUGUUACGCCGUUCGGAUCUG	-0.409
UCCUGUGCUACACAUCGUAUGUACCGAAUCGGGUUUUUGGGUUUUUUUGGGAAAAAGGGAAAGUAUUAUGUUACGCCGUUCGGAUCUGCA	-0.416
GUCCUGUGCUACACAUCGUAUGUACCGAAUCAAAGUGUGUGUGUGUGUGUGUGUGUAAAAAAGUAUUAUGUUACGCCGUUCGGAUCUGCA	0.617
CUGUGCUACACAUCGUAUGUACCGAAUCGGGGUUUUUUUGGGUUUUUUUGGGUUUUUUUGGGAAAGUAUUAUGUUACGCCGUUCGGAUCU	-0.914
UGGCCCUGGUGGCAUGCGGGGAGGAAGAGGUGGCCUCAUGGAUCGUGGUGGUCCCGGUGGAAUGUUCAGAGGUGGCCGUGGUGGAGCCAG	0.208
CUGUGCUACACAUCGUAUGUACCGAAUCGGGCCCCCCCGGGCCCCCCCGGGCCCCCCCGGGAAAGUAUUAUGUUACGCCGUUCGGAUCUG	-0.961
GUCCUGUGCUACACAUCGUAUGUACCGAAUCGGGUUUUUGGGAAAGGGAAAAAAAGGGAAAGUAUUAUGUUACGCCGUUCGGAUCUGCAC	-0.469
CUGUGCUACACAUCGUAUGUACCGAAUCGGGGUUUUUGGGGUUUUUGGGGUUUUUUUGGGGAAAGUAUUAUGUUACGCCGUUCGGAUCUG	-0.359
ACCAUGCAGGUGGGCAUCUGUGGGAAGUGGGGCAAGGGGGGGAUAGGGAGGGGGGUAACACUUUGGGAACAGGUGGUCCCAGGUCGUUUC	1.46
